Measurements from different studies.
Parts stem from different laboratories: compare values within a part only. Substitutions count along the parent as printed.

Series 1
Target: Prothrombin, mature alpha-thrombin (F2, Homo sapiens, UniProt P00734)
Method: aptamer microarray, sandwich
Molecule type: DNA with 2'F-ANA
Sample: in vitro
Tested at: 200 nM
Setting: whole 15-mer aptamer, many near background
With: Cy3 exosite-II aptamer, 400 nM
Direction: higher = stronger binding
Strand: GGTTGGTGTGGTTGG
`2'F-ANA at 2 3 4 5 7 8 9 14`: “mean fluorescence intensity” 52.6 a.u.
`2'F-ANA at 1 2 9 11 14 15` — result for “mean fluorescence intensity”: 51.7 a.u.
`2'F-ANA at 1 3 5 6 7 10 14 15`: “mean fluorescence intensity” 45.9 a.u.
`2'F-ANA at 1 7 8 9 15` — result for “mean fluorescence intensity”: 219 a.u.
Under “mean fluorescence intensity”, `2'F-ANA at 1 2 3 4 6 9 11 14 15` is recorded as 55.9 a.u.
`2'F-ANA at 1 4 5 6 7 10 12 14`: “mean fluorescence intensity” 48.8 a.u.
Under “mean fluorescence intensity”, `2'F-ANA at 2 3 5 10 11 12 13` is recorded as 68.9 a.u.
Under “mean fluorescence intensity”, `2'F-ANA at 2 4 5 8 9 10 12 13 14` is recorded as 43.4 a.u.
For `2'F-ANA at 1 2 3 4 7 11 12 14 15`, “mean fluorescence intensity” read 259 a.u.
`2'F-ANA at 3 4 8 9 10 11 13 15`: “mean fluorescence intensity” 233 a.u.
Under “mean fluorescence intensity”, `2'F-ANA at 2 4 8 11 13` is recorded as 216 a.u.

Series 2
Target: Sal-like protein 4, full length isoform A (SALL4, Homo sapiens, UniProt Q9UJQ4, residues 1-1053)
UniProt Q9UJQ4, sequence (whole entry, looked up): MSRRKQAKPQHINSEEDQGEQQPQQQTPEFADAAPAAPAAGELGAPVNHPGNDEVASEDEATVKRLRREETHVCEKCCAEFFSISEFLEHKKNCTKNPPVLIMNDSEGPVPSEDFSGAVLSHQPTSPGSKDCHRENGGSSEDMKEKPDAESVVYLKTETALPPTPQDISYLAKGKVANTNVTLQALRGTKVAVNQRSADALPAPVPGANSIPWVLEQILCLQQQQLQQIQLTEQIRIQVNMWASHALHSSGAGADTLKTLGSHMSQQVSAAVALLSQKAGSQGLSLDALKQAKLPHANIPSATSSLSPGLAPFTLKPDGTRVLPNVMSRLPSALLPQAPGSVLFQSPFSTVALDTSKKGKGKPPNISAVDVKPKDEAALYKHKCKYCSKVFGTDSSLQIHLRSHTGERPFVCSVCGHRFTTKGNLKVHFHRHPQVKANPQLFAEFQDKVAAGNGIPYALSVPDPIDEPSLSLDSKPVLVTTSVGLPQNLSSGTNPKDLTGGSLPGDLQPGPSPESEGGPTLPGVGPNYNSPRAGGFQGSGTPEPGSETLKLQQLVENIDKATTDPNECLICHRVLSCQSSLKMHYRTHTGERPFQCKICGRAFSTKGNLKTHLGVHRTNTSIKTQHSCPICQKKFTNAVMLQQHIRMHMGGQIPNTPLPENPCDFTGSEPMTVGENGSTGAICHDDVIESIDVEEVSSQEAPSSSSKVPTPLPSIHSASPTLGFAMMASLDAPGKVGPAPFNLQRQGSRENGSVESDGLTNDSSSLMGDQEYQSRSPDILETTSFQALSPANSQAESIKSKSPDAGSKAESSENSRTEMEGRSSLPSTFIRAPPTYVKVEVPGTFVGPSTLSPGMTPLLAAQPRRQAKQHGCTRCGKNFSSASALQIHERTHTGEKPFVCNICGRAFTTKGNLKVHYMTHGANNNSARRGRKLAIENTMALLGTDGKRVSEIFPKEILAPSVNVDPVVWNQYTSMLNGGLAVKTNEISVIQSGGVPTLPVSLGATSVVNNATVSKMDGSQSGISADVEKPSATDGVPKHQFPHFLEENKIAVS
Method: universal PBM
Molecule type: double-stranded DNA, one strand shown
Sample: in vitro
Tested at: 600 nM
Setting: 8-mer, flanks averaged, mean of replicates
Direction: higher = stronger binding
With `ACGTAGCG` the E-score was -0.181.
For `CTCGGAAC`, the E-score was -0.259.
With `CCCAGCCG` the E-score was -0.341.
With `AAGGTCAT` the E-score was 0.0567.
`AAAATGTT` has an E-score of 0.315.
`CAGCCGCA` gave an E-score of -0.333.
With `ACAATCAA` the E-score was 0.123.
With `AAGGGGCA` the E-score was -0.224.
`AAGTGTAG` has an E-score of 0.0856.
With `AAAGGGTT` the E-score was 0.0132.

Series 3
Target: CCNE1, cyclin fold, Cln2 fusion (human)
Method: yeast growth competition, sequencing
Sample: yeast
Setting: weak parent motif
Baseline: not given
Direction: higher = stronger binding
Parent: MICAL3 docking peptide (human); LQLRRQLSFSEDS
For `LQLRRFLSFSEDS [Q6F]`, “normalised enrichment score” read 0.103.
Under “normalised enrichment score”, `LQLRRQSSFSEDS [L7S]` is recorded as -0.349.
`LTLRRQLSFSEDS [Q2T]` — result for “normalised enrichment score”: 1.46.
For `LQIRRQLSFSEDS [L3I]`, “normalised enrichment score” read 2.52.
For `LQLRCQLSFSEDS [R5C]`, “normalised enrichment score” read 0.193.
`LQLRRQLNFSEDS [S8N]`: “normalised enrichment score” 0.531.
`LQLRHQLSFSEDS [R5H]`: “normalised enrichment score” -0.114.
`LQLRRQLSISEDS [F9I]` — result for “normalised enrichment score”: 0.0186.
`LQLRRQLSESEDS [F9E]`: “normalised enrichment score” -0.0889.

Single results of other studies
`PhoQ, residues 284 288 289 292 302 303 TTSMTC` has a fold induction of 2.73 (PhoP, residues 12 14 15 18 19 LFHKL (Escherichia coli, UniProt P23836); Sort-seq, refers to: YFP reporter; E. coli; PhoQ-PhoP variant library, with: 10 µM Mg2+; baseline: high Mg2+ state, higher = stronger signaling).
